Experimental data gathered from unrelated publications.
A part holds a random share of what one study measured. Several values in a cell are separate wells, animals, samples, runs or records.

Study 1
Compound: CCN1/C(=C/C=C2\CCCC(/C=C/C3=[N+](CC)c4ccccc4C3(C)C)=C2NCCCCCCCCN2CCC(Nc3nc4ccccc4n3Cc3ccc(F)cc3)CC2)C(C)(C)c2ccccc21
Cell line: U-87 MG
Tested at: concentration not given
Relative to: DMSO
item	log2 fold change
GPR137B mRNA	1.56
NIPAL1 mRNA	2.05
RDM1 mRNA	-2.65
SLC7A8 mRNA	-1.47
KIF18A mRNA	-2.1
DARS2 mRNA	-0.827
RALA mRNA	1.16
NFE2L1 mRNA	0.919

Study 2
Structure (SMILES): C[C@@H]1CN(c2ccc(-c3cc(C(=O)NCCOCCOCCOCCOCCOCCOCCNC(=O)/C=C/c4[nH]cc(C(=O)N[C@@H](CC(N)=O)c5ccc(F)c(Cl)c5)c4-c4ccc(Cl)cc4F)ccc3F)cc2NC(=O)c2ccc(F)cc2C(F)(F)F)C[C@H](C)N1C
Effect on: thermal unfolding
Technique: differential scanning fluorimetry
Tested at: 5.5 µM
Reading: higher = more unfolded
DCAF1: DDB1- and CUL4-associated factor 1 (DCAF1, Homo sapiens, UniProt Q9Y4B6)
Sequence of UniProt Q9Y4B6 (whole entry, looked up): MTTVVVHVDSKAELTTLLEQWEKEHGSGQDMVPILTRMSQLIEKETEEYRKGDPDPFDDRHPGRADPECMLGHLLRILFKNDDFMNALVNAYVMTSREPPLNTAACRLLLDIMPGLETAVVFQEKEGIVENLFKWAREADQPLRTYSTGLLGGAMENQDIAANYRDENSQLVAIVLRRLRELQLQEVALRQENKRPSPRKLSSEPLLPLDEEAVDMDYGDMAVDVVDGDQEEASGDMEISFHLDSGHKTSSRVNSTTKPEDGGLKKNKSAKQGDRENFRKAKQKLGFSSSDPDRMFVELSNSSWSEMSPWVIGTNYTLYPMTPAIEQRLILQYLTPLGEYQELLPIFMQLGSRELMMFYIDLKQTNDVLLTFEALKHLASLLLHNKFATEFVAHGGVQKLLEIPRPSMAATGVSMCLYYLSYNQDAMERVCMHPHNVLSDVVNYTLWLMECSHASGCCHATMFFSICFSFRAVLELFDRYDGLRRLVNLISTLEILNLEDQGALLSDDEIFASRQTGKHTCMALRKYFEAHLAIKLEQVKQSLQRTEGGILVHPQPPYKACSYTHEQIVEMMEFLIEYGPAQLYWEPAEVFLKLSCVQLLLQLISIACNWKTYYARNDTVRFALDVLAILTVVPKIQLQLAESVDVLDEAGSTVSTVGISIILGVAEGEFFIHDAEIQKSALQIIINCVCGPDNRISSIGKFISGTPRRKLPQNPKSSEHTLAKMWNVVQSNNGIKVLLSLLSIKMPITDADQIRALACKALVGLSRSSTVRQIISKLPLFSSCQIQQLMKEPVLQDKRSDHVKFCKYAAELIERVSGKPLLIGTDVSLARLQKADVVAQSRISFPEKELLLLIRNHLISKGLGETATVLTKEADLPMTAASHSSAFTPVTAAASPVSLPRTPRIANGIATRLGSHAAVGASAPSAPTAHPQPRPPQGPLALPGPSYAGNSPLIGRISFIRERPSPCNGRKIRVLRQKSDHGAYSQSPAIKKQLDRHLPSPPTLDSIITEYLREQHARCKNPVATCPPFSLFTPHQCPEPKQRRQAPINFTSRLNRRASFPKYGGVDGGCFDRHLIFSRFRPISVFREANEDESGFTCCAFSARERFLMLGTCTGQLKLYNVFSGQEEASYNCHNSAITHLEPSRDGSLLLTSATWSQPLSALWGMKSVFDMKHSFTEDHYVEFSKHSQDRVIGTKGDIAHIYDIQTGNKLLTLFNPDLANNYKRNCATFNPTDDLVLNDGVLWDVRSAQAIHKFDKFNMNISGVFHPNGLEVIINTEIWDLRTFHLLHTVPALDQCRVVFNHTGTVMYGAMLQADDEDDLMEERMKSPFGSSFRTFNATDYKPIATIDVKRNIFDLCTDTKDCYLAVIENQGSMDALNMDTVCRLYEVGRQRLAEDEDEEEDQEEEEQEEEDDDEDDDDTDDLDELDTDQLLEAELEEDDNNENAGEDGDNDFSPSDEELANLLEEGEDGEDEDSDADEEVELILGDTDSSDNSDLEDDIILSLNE
target	temperature	SYPRO Orange fluorescence [a.u.]
DCAF1	69.01 °C	49300
WDR5 (Homo sapiens, UniProt P61964)	76.21 °C	53800
DCAF1	30 °C	8350
DCAF1	31 °C	8710
DCAF1	60.01 °C	47200
DCAF1	70.41 °C	47900
DCAF1	47.2 °C	16000
DCAF1	52.01 °C	20400

Study 3
Organism: Arabidopsis thaliana
Strain: Col-0
Tested at: 100 µg/mL
Notes: seed germination
Structure (SMILES)	root length [cm]
CN1C(=O)C(O)(C(=O)O)Oc2cc(F)ccc21 (stereo not shown)	0.438
O=C(O)C1Oc2cc(F)ccc2N(Cc2ccccc2)C1=O (stereo not shown)	0.74
COc1ccc2c(c1)OC(O)(C(=O)O)C(=O)N2Cc1ccccc1 (stereo not shown)	0.248
CC(C)=CCN1C(=O)C(O)(C(=O)O)Oc2cc(F)ccc21 (stereo not shown)	0.77
CC(C)(C)c1ccc(Oc2ccc3c(c2)OC(O)(C(=O)O)C(=O)N3Cc2ccccc2)cc1 (stereo not shown)	0.122
O=C(O)C1(O)Oc2cc(Cl)ccc2N(Cc2ccccc2)C1=O (stereo not shown)	0.067
O=C(O)C1(O)Oc2ccccc2N(Cc2ccccc2)C1=O (stereo not shown)	0.736
O=C(O)C1(O)Oc2cc(F)ccc2N(Cc2ccccc2)C1=O (stereo not shown)	0.01

Further values, each from its own experiment
Compound	species	route	dose	measurement	result
Cn1cc(-c2cccc(CN3CCC4(CC3)COc3c4ccc4c3CN([C@H]3CCC(=O)NC3=O)C4=O)c2)cn1	rat	intravenous	1 mg/kg	Vz	2.86 L/kg and 3.49 L/kg and 3.93 L/kg

Repeated from above (study 2):
target	temperature	SYPRO Orange fluorescence [a.u.]
DCAF1	60.01 °C	47200
DCAF1	70.41 °C	47900
DCAF1	47.2 °C	16000
